Measurements pooled from the literature.
Each line is one published result; not all experiments were run side by side. ± marks the error that the study gave.
Scn2a: Sodium channel protein type 2 subunit alpha (Scn2a, Rattus norvegicus, UniProt P04775)
rep nsp14 with nsp10: Replicase polyprotein 1ab, nsp14 with nsp10 (rep, Severe acute respiratory syndrome coronavirus 2, UniProt P0DTD1)
PTPN3: Tyrosine-protein phosphatase non-receptor type 3 (PTPN3, Homo sapiens, UniProt P26045)
OPRL1: Nociceptin receptor (OPRL1, Homo sapiens, UniProt P41146)
Secreted effector protein C403A/D356A: Secreted effector protein (Yersinia pestis, UniProt O68720, C403A/D356A)

The chains behind the UniProt entries cited, without tags or fusion partners. A line that says so, or that is headed by a name, gives the form on record, which may keep a tag or linker. Residues count along the entry.
UniProt P04775, whole entry: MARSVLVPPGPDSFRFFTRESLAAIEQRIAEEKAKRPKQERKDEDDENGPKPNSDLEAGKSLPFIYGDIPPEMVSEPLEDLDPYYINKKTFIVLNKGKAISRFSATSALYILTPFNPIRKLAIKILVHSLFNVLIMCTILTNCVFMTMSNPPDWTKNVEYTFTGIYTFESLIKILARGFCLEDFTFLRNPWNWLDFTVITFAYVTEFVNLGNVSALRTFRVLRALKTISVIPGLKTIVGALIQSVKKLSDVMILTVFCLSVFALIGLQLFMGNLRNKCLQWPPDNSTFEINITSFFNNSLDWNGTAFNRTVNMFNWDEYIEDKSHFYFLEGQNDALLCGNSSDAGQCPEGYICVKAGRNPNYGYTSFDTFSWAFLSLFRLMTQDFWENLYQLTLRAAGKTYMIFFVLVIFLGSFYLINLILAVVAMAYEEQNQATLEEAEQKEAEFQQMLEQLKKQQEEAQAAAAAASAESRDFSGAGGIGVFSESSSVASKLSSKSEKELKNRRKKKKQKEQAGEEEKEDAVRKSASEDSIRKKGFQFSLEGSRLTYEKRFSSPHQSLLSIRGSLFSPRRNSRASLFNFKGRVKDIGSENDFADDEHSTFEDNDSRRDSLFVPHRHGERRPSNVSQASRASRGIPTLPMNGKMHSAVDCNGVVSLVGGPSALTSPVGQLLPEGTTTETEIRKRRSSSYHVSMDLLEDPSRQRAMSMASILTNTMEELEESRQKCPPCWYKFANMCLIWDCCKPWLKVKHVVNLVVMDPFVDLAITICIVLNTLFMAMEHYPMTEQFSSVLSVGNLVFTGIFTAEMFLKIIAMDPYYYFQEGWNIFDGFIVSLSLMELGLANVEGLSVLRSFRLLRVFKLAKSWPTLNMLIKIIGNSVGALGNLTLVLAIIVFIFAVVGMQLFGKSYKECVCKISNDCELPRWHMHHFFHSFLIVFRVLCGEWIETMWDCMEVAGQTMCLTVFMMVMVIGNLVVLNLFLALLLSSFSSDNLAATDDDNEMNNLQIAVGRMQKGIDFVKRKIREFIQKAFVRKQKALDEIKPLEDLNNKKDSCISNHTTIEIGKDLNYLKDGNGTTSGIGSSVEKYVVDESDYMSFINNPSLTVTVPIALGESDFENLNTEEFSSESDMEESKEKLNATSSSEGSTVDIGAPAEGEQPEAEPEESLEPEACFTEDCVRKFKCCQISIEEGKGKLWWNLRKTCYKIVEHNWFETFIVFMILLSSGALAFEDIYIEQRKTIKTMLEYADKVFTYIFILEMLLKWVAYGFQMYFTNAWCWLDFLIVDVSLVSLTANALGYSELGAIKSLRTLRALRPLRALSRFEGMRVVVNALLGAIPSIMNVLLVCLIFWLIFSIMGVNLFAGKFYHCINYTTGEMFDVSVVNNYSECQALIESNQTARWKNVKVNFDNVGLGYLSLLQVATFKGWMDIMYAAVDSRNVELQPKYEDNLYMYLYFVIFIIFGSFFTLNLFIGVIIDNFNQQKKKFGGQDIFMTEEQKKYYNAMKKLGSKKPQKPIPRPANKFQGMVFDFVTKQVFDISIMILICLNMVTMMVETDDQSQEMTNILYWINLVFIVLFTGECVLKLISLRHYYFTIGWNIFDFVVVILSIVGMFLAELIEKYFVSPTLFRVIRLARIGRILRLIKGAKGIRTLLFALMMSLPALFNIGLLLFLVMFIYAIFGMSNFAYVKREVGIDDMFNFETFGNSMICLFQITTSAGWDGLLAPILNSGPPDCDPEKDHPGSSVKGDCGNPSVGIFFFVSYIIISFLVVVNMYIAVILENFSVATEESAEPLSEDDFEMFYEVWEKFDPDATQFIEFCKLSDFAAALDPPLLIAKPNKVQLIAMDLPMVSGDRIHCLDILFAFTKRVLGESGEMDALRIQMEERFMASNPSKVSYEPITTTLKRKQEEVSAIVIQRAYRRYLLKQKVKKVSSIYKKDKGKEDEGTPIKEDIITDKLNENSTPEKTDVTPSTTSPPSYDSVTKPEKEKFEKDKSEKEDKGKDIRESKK
UniProt P26045, 646-901 limits assumed: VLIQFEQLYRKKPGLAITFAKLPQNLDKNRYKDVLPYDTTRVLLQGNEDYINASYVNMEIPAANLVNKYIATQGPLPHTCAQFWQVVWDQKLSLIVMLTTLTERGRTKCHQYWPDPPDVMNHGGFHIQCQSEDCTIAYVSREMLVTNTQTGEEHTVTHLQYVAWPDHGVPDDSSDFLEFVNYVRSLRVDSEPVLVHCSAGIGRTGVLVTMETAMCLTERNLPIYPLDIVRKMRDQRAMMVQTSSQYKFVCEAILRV
UniProt P41146, whole entry: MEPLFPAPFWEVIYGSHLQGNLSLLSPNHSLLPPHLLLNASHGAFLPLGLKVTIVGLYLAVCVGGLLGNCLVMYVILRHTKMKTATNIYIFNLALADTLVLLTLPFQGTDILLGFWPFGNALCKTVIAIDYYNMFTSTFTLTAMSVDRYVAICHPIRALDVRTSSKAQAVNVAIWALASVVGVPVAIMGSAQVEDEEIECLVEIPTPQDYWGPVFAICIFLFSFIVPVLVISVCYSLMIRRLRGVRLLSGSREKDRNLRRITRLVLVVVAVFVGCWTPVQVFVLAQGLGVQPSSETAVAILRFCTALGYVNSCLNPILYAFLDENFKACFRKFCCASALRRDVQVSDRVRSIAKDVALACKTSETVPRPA
UniProt Q9Y6W6, 321-464 limits assumed: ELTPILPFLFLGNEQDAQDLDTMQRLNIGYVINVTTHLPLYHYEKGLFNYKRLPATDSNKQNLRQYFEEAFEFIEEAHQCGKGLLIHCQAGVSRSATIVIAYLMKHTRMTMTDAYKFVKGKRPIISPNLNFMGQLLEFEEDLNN
UniProt O42275, whole entry, looked up: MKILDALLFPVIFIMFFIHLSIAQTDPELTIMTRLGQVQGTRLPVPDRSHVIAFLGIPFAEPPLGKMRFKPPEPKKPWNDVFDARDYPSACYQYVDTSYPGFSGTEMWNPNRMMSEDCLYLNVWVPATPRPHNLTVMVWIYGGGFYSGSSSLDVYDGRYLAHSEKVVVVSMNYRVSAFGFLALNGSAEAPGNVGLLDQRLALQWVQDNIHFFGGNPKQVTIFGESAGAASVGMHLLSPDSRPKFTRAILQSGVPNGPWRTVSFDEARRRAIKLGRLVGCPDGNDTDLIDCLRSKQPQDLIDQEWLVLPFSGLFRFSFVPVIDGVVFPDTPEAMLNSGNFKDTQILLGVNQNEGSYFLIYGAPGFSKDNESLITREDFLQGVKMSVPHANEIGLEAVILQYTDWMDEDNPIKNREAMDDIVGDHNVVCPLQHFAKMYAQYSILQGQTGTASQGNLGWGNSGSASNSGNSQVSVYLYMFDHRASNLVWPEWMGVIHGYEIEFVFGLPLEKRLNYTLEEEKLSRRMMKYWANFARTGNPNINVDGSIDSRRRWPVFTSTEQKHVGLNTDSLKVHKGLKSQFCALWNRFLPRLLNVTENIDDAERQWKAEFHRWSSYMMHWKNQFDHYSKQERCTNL
UniProt P08510, 1-655 with tags or gaps DEL6-46: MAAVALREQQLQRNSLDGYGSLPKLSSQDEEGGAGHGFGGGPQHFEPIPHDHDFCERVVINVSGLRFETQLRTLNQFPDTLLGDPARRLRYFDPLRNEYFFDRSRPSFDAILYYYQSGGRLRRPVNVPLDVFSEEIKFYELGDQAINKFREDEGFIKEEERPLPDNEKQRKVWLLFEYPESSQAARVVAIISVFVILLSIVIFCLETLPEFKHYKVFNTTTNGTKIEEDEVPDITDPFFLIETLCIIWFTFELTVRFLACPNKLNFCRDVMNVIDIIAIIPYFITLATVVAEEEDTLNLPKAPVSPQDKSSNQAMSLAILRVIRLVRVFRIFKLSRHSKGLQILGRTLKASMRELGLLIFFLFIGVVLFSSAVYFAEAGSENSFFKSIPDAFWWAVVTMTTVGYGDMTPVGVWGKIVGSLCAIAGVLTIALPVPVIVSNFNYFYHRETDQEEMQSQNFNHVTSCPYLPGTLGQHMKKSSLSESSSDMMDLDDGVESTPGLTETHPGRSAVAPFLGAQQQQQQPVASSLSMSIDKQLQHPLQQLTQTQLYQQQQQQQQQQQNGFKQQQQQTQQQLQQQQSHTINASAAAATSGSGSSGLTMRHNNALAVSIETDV
UniProt P63096, 2-354 partner limits assumed: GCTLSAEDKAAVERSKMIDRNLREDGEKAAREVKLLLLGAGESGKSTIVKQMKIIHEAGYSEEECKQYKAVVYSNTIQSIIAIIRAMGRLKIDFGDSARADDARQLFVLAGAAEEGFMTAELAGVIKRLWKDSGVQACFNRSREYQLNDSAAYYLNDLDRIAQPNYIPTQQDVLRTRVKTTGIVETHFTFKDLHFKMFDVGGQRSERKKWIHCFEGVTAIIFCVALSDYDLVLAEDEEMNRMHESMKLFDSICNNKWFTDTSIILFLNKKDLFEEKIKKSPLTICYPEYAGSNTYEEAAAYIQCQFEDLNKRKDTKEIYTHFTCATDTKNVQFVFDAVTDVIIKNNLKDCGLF
UniProt P32121, whole entry partner: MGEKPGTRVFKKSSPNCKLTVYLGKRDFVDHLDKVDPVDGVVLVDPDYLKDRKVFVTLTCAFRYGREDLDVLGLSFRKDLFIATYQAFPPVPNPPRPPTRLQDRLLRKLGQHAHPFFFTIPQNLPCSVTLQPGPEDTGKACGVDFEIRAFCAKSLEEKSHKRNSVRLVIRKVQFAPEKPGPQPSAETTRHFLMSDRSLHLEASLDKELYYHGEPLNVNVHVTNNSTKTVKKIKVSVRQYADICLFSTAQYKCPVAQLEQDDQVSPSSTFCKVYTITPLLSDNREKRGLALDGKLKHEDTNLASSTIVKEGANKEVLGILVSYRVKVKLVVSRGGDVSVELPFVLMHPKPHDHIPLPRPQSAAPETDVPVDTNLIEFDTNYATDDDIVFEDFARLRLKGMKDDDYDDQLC
UniProt P62873, whole entry partner: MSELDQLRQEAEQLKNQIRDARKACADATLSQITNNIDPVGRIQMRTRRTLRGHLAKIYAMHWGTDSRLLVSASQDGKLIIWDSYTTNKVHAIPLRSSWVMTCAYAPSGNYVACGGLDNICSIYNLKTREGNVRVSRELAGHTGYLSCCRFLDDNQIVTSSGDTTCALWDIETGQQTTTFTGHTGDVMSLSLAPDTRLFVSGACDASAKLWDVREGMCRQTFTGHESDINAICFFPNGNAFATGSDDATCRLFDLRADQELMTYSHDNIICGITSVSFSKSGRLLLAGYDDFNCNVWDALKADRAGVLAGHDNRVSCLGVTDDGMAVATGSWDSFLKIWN
UniProt P59768, 2-68 partner limits assumed: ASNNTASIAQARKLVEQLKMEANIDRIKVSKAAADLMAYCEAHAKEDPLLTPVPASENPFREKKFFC

Compound	tested on	assay	test system	setting	scale	measurement	value
C[C@H](N)C(=O)N[C@H]1CSSC[C@@H]2NC(=O)[C@H](CCCNC(=N)N)NC(=O)[C@H](CO)NC(=O)[C@H](Cc3c[nH]cn3)NC(=O)[C@H](CC(=O)O)NC(=O)[C@H](CCCNC(=N)N)NC(=O)[C@H](C)NC(=O)[C@H](Cc3c[nH]c4ccccc34)NC(=O)[C@H](CCCCN)NC(=O)[C@H](CO)NC(=O)[C@H](CO)NC(=O)[C@H](CSSC[C@@H](C(N)=O)NC2=O)NC(=O)[C@H](CC(N)=O)NC1=O	Scn2a	sodium current, blocker, two-electrode voltage clamp	Xenopus oocytes	1 µM, 20 min, steady state		block	93 ± 2%
O=C(O)C(O)=CC(=O)C1(Cc2ccc(Cl)cc2)CCN(C(=O)C=Cc2ccccc2)CC1	rep nsp14 with nsp10	exonuclease activity, inhibitor		20 µM		inhibition	74%
CS(=O)(=O)C=CCNC(=O)c1ccc2[nH]c(=O)n(C3CC3)c2c1	Polyprotein P1234, nsP2 protease (Chikungunya virus, UniProt Q5XXP4)	time-dependent inhibition				kinact	0.0021 ± 0.0002 s⁻¹
CC(=O)N[C@@H](Cc1c[nH]cn1)C(=O)N[C@@H](CC(=O)O)C(=O)NCC(=O)N[C@@H](CC(C)C)C(=O)N[C@@H](Cc1cc(=O)oc2cc(OP(=O)(O)O)ccc12)C(=O)N[C@@H](CCC(N)=O)C(=O)NCC(=O)N[C@@H](CC(C)C)C(=O)N[C@@H](CO)C(=O)N[C@H](C(=O)N[C@@H](C)C(=O)N[C@H](C(=O)N[C@@H](CCCCN)C(=O)N[C@@H](CC(=O)O)C(=O)N[C@H](C(=O)N[C@@H](Cc1ccc(OP(=O)(O)O)cc1)C(=O)N[C@@H](CC(=O)O)C(=O)N[C@@H](C)C(=O)N[C@@H](CC(C)C)C(=O)N[C@@H](Cc1c[nH]cn1)C(N)=O)[C@@H](C)O)[C@@H](C)O)[C@@H](C)O	PTPN3	substrate		pH 6, TCR zeta-chain ITAM peptide		kcat	0.33 s⁻¹
C[C@@H]1NC(=O)[C@H](CCCNC(=N)N)NC(=O)[C@H](CO)NC(=O)[C@H](Cc2c[nH]cn2)NC(=O)[C@H](CC(=O)O)NC(=O)[C@H](CCCNC(=N)N)NC(=O)[C@@H]2CSSC[C@H](N)C(=O)N[C@@H](C)C(=O)N[C@@H](CC(N)=O)C(=O)N[C@@H](CSSC[C@@H](C(N)=O)NC1=O)C(=O)N[C@@H](CO)C(=O)N[C@@H](CO)C(=O)N[C@@H](CCCCN)C(=O)N[C@@H](Cc1c[nH]c3ccccc13)C(=O)N2	Scn2a	sodium current, blocker, two-electrode voltage clamp	Xenopus oocytes	1 µM, 20 min, steady state		block	66 ± 4%
CC(C)[C@H]1CC[C@@H](N2CCC3(CC2)C(=O)NCN3c2ccccc2)CC1	OPRL1	β-arrestin 2 recruitment, BRET	HEK293		relative to: compound EC50 over N/OFQ EC50	potency ratio	63
CC(=O)N[C@@H](Cc1c[nH]cn1)C(=O)N[C@H](C(=O)NCC(=O)N[C@@H](Cc1ccccc1)C(=O)N[C@@H](CC(C)C)C(=O)N[C@H](C(=O)N[C@@H](CCC(=O)O)C(=O)N[C@@H](Cc1cc(=O)oc2cc(OP(=O)(O)O)ccc12)C(=O)N[C@H](C(=O)N[C@@H](C)C(=O)N[C@H](C(=O)N[C@@H](CCCNC(=N)N)C(=O)N[C@@H](Cc1c[nH]c2ccccc12)C(N)=O)[C@@H](C)O)C(C)C)[C@@H](C)OP(=O)(O)O)[C@@H](C)O	Dual specificity protein phosphatase 10 (Homo sapiens, UniProt Q9Y6W6)	substrate		pH 6, ERK1/2 activation-loop peptide		kcat	0.24 s⁻¹
Cc1ccc(S(=O)(=O)Nc2cccc(C(=O)NC3CCN(c4ncnc5[nH]cnc45)CC3)c2)cc1	Replicase polyprotein 1ab, nsp14 ExoN with nsp10 (rep, Severe acute respiratory syndrome coronavirus 2, UniProt P0DTD1)	ExoN activity		12.5 µM		inhibition	10.5%
CC[C@H](C)[C@H](NC(=O)[C@H](C)NC(=O)[C@H](CCC(=O)O)NC(=O)[C@H](CCC(=O)O)NC(=O)[C@H](CC(C)C)NC(=O)[C@H](CCCCN)NC(=O)[C@H](CCCCN)NC(=O)[C@H](CCSC)NC(=O)[C@H](CCC(=O)O)NC(=O)[C@H](Cc1ccc(O)cc1)NC(=O)[C@H](CCC(=O)O)NC(=O)[C@H](CC(C)C)NC(=O)[C@H](CC(=O)O)NC(=O)[C@H](CC(C)C)NC(=O)[C@H](Cc1ccccc1)NC(=O)[C@H](Cc1ccc(O)cc1)NC(=O)[C@@H](NC(=O)[C@H](CC(N)=O)NC(=O)[C@@H](NC(=O)[C@H](CCC(N)=O)NC(=O)[C@H](CC(=O)O)NC(=O)[C@H](CC(C)C)NC(=O)[C@@H](N)CO)[C@@H](C)CC)C(C)C)C(=O)N[C@@H](CCCCN)C(=O)N[C@@H](CCCCN)C(=O)N[C@@H](CC(C)C)C(=O)N[C@@H](CCC(=O)O)C(=O)N[C@@H](CCC(=O)O)C(=O)N[C@H](C(=O)N[C@@H](Cc1ccc(O)cc1)C(=O)N[C@H](C(=O)N[C@@H](CC(=O)O)C(=O)N[C@@H](CC(C)C)C(=O)N[C@@H](CCCCN)C(=O)N[C@@H](CCC(=O)O)C(=O)N[C@@H](CC(C)C)C(=O)O)[C@@H](C)CC)[C@@H](C)O	SARS-CoV-2 Delta pseudovirus	pseudovirus infection, inhibitor, luciferase	Caco-2	24 h, dual mutations		IC50	1.63 µM
NC[C@@H](CC[C@H](N)C(=O)O)C[C@H]1O[C@@H](n2cnc3c(N)ncnc32)[C@H](O)[C@@H]1O	Replicase polyprotein 1ab, nsp16 with nsp10 (rep, Middle East respiratory syndrome-related coronavirus, UniProt K9N7C7)	methyltransferase activity, inhibitor, radiometric nsp10-nsp16				Hill slope	-1.1
CC[C@H](C)[C@H](NC(=O)[C@H](CC(C)C)NC(=O)[C@H](Cc1ccc(OP(=O)(O)O)cc1)NC(=O)[C@H](CCC(=O)O)NC(=O)[C@H](CC(=O)O)NC(=O)[C@H](C)NC(=O)[C@H](CC(=O)O)NC(=O)[C@@H](NC(=O)[C@H](CC(C)C)NC(=O)CCCC[C@@H]1SC[C@@H]2NC(=O)N[C@@H]21)C(C)C)C(=O)N1CCC[C@H]1C(=O)N[C@@H](CCC(N)=O)C(=O)N[C@@H](CCC(N)=O)C(=O)NCC(=O)O	Secreted effector protein C403A/D356A	surface plasmon resonance				kon	16200 M⁻¹ s⁻¹
O=C1Cc2ccccc2N1C1CCN([C@@H]2CC[C@H]3CCCc4cccc2c43)CC1	OPRL1	G protein interaction, BRET	HEK293 membranes		relative to: N/OFQ	fold lower potency	90 fold
O=C(O)C(O)=CC(=O)C1(Cc2ccc(Cl)cc2)CCN(Cc2ccc3ccccc3c2)CC1	rep nsp14 with nsp10	exonuclease activity, inhibitor		20 µM		inhibition	5%
CC[C@H](C)[C@H](NC(=O)[C@H](C)NC(=O)[C@H](CCC(=O)O)NC(=O)[C@H](CCC(=O)O)NC(=O)[C@H](CC(C)C)NC(=O)[C@H](CCCCN)NC(=O)[C@H](CCCCN)NC(=O)[C@H](CCSC)NC(=O)[C@H](CCC(=O)O)NC(=O)[C@H](Cc1ccc(O)cc1)NC(=O)[C@H](CCC(=O)O)NC(=O)[C@H](CC(C)C)NC(=O)[C@H](CC(=O)O)NC(=O)[C@H](CC(C)C)NC(=O)[C@H](Cc1ccccc1)NC(=O)[C@@H](NC(=O)[C@@H](NC(=O)[C@H](CC(N)=O)NC(=O)[C@@H](NC(=O)[C@H](CCC(N)=O)NC(=O)[C@H](CC(=O)O)NC(=O)[C@H](CC(C)C)NC(=O)[C@@H](N)CO)[C@@H](C)CC)C(C)C)[C@@H](C)O)C(=O)N[C@@H](CCCCN)C(=O)N[C@@H](CCCCN)C(=O)N[C@@H](CC(C)C)C(=O)N[C@@H](CCC(=O)O)C(=O)N[C@@H](CCC(=O)O)C(=O)N[C@H](C(=O)N[C@@H](Cc1ccc(O)cc1)C(=O)N[C@H](C(=O)N[C@@H](CC(=O)O)C(=O)N[C@@H](CC(C)C)C(=O)N[C@@H](CCCCN)C(=O)N[C@@H](CCC(=O)O)C(=O)N[C@@H](CC(C)C)C(=O)O)[C@@H](C)CC)[C@@H](C)O	SARS-CoV-2 EG.5.1 pseudovirus	pseudovirus infection, inhibitor, luciferase	Caco-2	24 h		IC50	0.335 µM
CN(C)Cc1ccc(OC(=O)N(C)C)c(Cl)c1	Acetylcholinesterase (ache, Electrophorus electricus, UniProt O42275)	enzyme activity, inhibitor, Ellman		5.5 µM, added: acetylthiocholine iodide		Vmax	0.072 absorbance units/min
CC(=O)N[C@@H](Cc1c[nH]cn1)C(=O)N[C@@H](CC(=O)O)C(=O)NCC(=O)N[C@@H](CC(C)C)C(=O)N[C@@H](Cc1ccc(OP(=O)(O)O)cc1)C(=O)N[C@@H](CCC(N)=O)C(=O)NCC(=O)N[C@@H](CC(C)C)C(=O)N[C@@H](CO)C(=O)N[C@H](C(=O)N[C@@H](C)C(=O)N[C@H](C(=O)N[C@@H](CCCCN)C(=O)N[C@@H](CC(=O)O)C(=O)N[C@H](C(=O)N[C@@H](Cc1cc(=O)oc2cc(OP(=O)(O)O)ccc12)C(=O)N[C@@H](CC(=O)O)C(=O)N[C@@H](C)C(=O)N[C@@H](CC(C)C)C(=O)N[C@@H](Cc1c[nH]cn1)C(N)=O)[C@@H](C)O)[C@@H](C)O)[C@@H](C)O	PTPN3	substrate		pH 6, TCR zeta-chain ITAM peptide		kcat	0.69 s⁻¹
O=C(/C=C/c1ccc(O)cc1)/C(C(=O)Nc1ccccc1)=C(O)/C=C/c1ccc(O)cc1	Lethal factor (Bacillus anthracis, UniProt P15917)	enzyme activity, uncompetitive inhibitor		apparent		Ki	19.7 µM
O=P(O)(O)C(F)(F)c1cccc(-c2ccc(CO/N=C/c3ccco3)cc2)c1	Secreted effector protein C403A/D356A	surface plasmon resonance		immobilized protein		kon	159 M⁻¹ s⁻¹
CC1=C[C@@H](CN2CCN(c3ncccn3)CC2)[C@H](C(C)C)C[C@H]1Cc1nnc(Cc2c[nH]c3ccccc23)o1	Replicase polyprotein 1ab, nsp4-nsp5-nsp6 precursor (rep, Severe acute respiratory syndrome coronavirus 2, UniProt P0DTD1)	reporter gene, cell-based primary screen				luciferase signal	22.8%
Clc1nc2ccccc2cc1/C=N/c1cc(Br)ccn1	Replicase polyprotein 1ab, papain-like protease (rep, Severe acute respiratory syndrome coronavirus 2, UniProt P0DTD1)	enzyme activity, inhibitor		10 µM		inhibition	1.2%
CNC(=O)CC1C(=O)N(C2CCN([C@H]3CC[C@@H](C(C)C)CC3)CC2)c2ccccc21 (stereo partly shown)	OPRL1	G protein activation, GTPγS binding	CHO membranes	concentration not given, unit not given	relative to: compound over N/OFQ Emax	intrinsic activity	0.91
CC[C@H](C)[C@@H]1NC(=O)[C@H](CCCNC(=N)N)NC(=O)[C@@H](N)CSSC[C@@H]2NC(=O)[C@@H]3CSSC[C@@H](C(=O)N[C@H](C(=O)O)C(C)C)NC(=O)[C@H](CCCCN)NC(=O)[C@H](CC(N)=O)NC(=O)[C@H](Cc4ccccc4)NC(=O)[C@H](CCCNC(=N)N)NC(=O)[C@H](CC(N)=O)NC(=O)[C@H](CSSC[C@H](NC(=O)[C@H](CCCCN)NC(=O)[C@H](CCC(N)=O)NC(=O)[C@H](CC(N)=O)NC(=O)[C@@H]4C[C@@H](O)CN4C1=O)C(=O)N[C@@H](Cc1ccccc1)C(=O)N[C@@H](CCC(N)=O)C(=O)N[C@@H](Cc1c[nH]cn1)C(=O)N[C@@H](CC(C)C)C(=O)N[C@@H](CC(=O)O)C(=O)N[C@@H](CC(=O)O)C(=O)N3)NC(=O)[C@H](CCCCN)NC(=O)[C@H](CCCNC(=N)N)NC(=O)[C@H](CO)NC2=O	Sh (Drosophila melanogaster, UniProt P08510, del6-46)	potassium current, outside-out patch clamp		500 nM, chronic application, zero voltage, internal K 15, added: 1 mM TEA		koff	10 ± 1 s⁻¹
